Results collected from several papers.
Compare with care: the assays were run in different laboratories. Values joined by “and” are separate records of one study, mostly repeats; a detail may differ.
TRIM24 PHD-bromodomain: Transcription intermediary factor 1-alpha, PHD-bromodomain (TRIM24, Homo sapiens, UniProt O15164)

CO[C@@H]1O[C@H](CO)[C@@H](O)[C@H](O)[C@H]1O
ΔTm (uncharacterized protein (Pelagibacter ubique, UniProt Q4FMK2); differential scanning fluorimetry; Candidatus Pelagibacter ubique; concentration not given; higher = stronger binding): 3.44 °C

Cc1cc2c(cc1N1C(=O)c3cccc4c(Cl)ccc(c34)C1=O)n(C)c(=O)n2C
ΔTm (TRIM24 PHD-bromodomain; thermal shift; 10 µM): 0.1 °C

CC(=C/C(=O)O)/C=C/C=C(\C)C1C=C2C(C)(C)CCCC2(C)O1 (stereo not shown)
Pearson correlation coefficient (Rhodopsin (RHO, Homo sapiens, UniProt P08100, P23H); ER retention, immunostaining co-localization, refers to: opsin with calnexin; COS-7 transfected P23H; 30.00 µM): 0.55

CC1CCCN(C(=O)c2cc3ncccn3n2)C1 (stereo not shown)
fold enrichment (TRIM24 PHD-bromodomain; binding, affinity selection mass spectrometry; baseline: other proteins in batch): 0.954

O=c1nc(SCc2cc(F)cc(C(F)(F)F)c2)nc(SCc2ccc3sccc3c2)[nH]1
mean linear DNA (DNA topoisomerase 2-alpha (TOP2A, Homo sapiens, UniProt P11388); DNA cleavage; 31.25 µM): 3.89%

CC[C@H](C)[C@H](NC(=O)[C@H](Cc1ccccc1)NC(=O)[C@H](CCC(=O)O)NC(=O)[C@H](CCCNC(=N)N)NC(=O)[C@H](C)NC(=O)[C@H](C)NC(=O)[C@H](CCC(N)=O)NC(=O)[C@H](CCC(=O)O)NC(=O)[C@H](CCC(=O)O)NC(=O)[C@H](CC(C)C)NC(=O)[C@H](Cc1ccc(O)cc1)NC(=O)[C@H](CO)NC(=O)[C@H](CO)NC(=O)[C@@H](NC(=O)[C@H](CC(=O)O)NC(=O)[C@H](CO)NC(=O)[C@@H](NC(=O)[C@H](Cc1ccccc1)NC(=O)[C@@H](NC(=O)CNC(=O)[C@H](CCC(=O)O)NC(=O)[C@H](C)NC(=O)CCc1cnc[nH]1)[C@@H](C)O)[C@@H](C)O)C(C)C)C(=O)N[C@@H](C)C(=O)N[C@@H](Cc1c[nH]c2ccccc12)C(=O)N[C@@H](CC(C)C)C(=O)N[C@H](C(=O)N[C@@H](CCCNC(=N)N)C(=O)NCC(=O)N[C@@H](CCCNC(=N)N)C(=O)N[C@@H](CCCCNC(=O)COCCOCCNC(=O)COCCOCCNC(=O)CC[C@H](NC(=O)CCCCCCCCCCCCCCCCC(=O)O)C(=O)O)C(=O)NCC(=O)NCC(=O)N[C@@H](CO)C(=O)N[C@@H](CCCCNc1c(NCCCCCN(O)C(=O)CCC(=O)NCCCCCN(O)C(=O)CCC(=O)NCCCCCN(O)C(C)=O)c(=O)c1=O)C(=O)N[C@@H](CCCCNc1c(NCCCCCN(O)C(=O)CCC(=O)NCCCCCN(O)C(=O)CCC(=O)NCCCCCN(O)C(C)=O)c(=O)c1=O)C(=O)O)C(C)C
fold potency loss (Glucagon-like peptide 1 receptor (GLP1R, Homo sapiens, UniProt P43220); agonist, CRE luciferase reporter; BHK cells; metal-free DFO conjugate, with: 1% HSA; baseline: parent peptide): 2

CCCCCCCCCCCC(=O)SCCNC(=O)CCNC(=O)[C@H](O)C(C)(C)COP(=O)(O)OP(=O)(O)OC[C@H]1O[C@@H](n2cnc3c(N)ncnc32)[C@H](O)[C@@H]1OP(=O)(O)O
secondary structure change (Peroxisome proliferator-activated receptor alpha (Ppara, Mus musculus, UniProt P23204, F272I); far-UV circular dichroism; concentration not given): no effect

Nc1ncnc2c1ncn2[C@@H]1O[C@H](CO[P@](=O)(O)O[P@](=O)(O)O[P@@](=O)(O)S)[C@@H](O)[C@H]1O
ΔH of binding (GUK1 (Homo sapiens, UniProt Q16774); ITC; concentration not given, with: ADP): -4.14 kcal/mol and -3.77 kcal/mol and -3.85 kcal/mol

COCC(=O)NC1C(O)CC(OC2C(O)C(CO)OC(Oc3ccc([N+](=O)[O-])cc3)C2O)(C(=O)O)OC1C(O)C(O)CO (stereo not shown)
sialic acid release (Sialidase-2 (Homo sapiens, UniProt Q9Y3R4); substrate; 0.3 mM, 30 min, pH 5.0, 37 °C): 6%

O=S(=O)(O)C1CCNCC1
normalised MST signal (Sodium- and chloride-dependent taurine transporter (SLC6A6, Homo sapiens, UniProt P31641, Y138A); binding, microscale thermophoresis; 3.91 µM, room temperature, with: 50 nM labelled protein; higher = more binding): 0.0324

Excerpt of the above:
Nc1ncnc2c1ncn2[C@@H]1O[C@H](CO[P@](=O)(O)O[P@](=O)(O)O[P@@](=O)(O)S)[C@@H](O)[C@H]1O
ΔH of binding (GUK1 (Homo sapiens, UniProt Q16774); ITC; concentration not given, with: ADP): -4.14 kcal/mol and -3.77 kcal/mol and -3.85 kcal/mol
